Assay results of several laboratories.
Compare with care: the assays were run in different laboratories. Values after ≈ are worked out from the molar mass of the structure shown.
Organism: Pseudomonas aeruginosa

| Compound | test | test system | setting | endpoint | result |
| --- | --- | --- | --- | --- | --- |
| CC(C)C[C@@H]1NC(=O)[C@H](CC(C)C)NC(=O)[C@H](CCCCN)NC(=O)CSC[C@@H](C(=O)N[C@@H](CCCCN)C(N)=O)NC(=O)[C@H](CCCCN)NC(=O)[C@H](CC(C)C)NC(=O)[C@H](CCCCN)NC(=O)[C@@H]2CSCC(=O)N[C@@H](CCCCN)C(=O)N[C@@H](CC(C)C)C(=O)N[C@@H](CC(C)C)C(=O)N[C@@H](CCCCNC1=O)C(=O)N[C@@H](CCCCN)C(=O)N[C@@H](CC(C)C)C(=O)N[C@@H](CC(C)C)C(=O)N2 | – | PAO1 | 24 to 25 h | minimal biofilm inhibitory concentration | 32 µg/mL |
| CC[C@H](C)[C@H](NC(=O)[C@H](CCCCN)NC(=O)[C@H](CCCCN)NC(=O)[C@H](CC(C)C)NC(=O)[C@H](CCCCN)NC(=O)[C@H](CCC(=O)O)NC(=O)[C@H](CCCCN)NC(=O)[C@@H](NC(=O)[C@H](CCCCN)NC(=O)[C@H](CC(N)=O)NC(=O)[C@H](CCCNC(=N)N)NC(=O)[C@H](Cc1ccccc1)NC(=O)[C@H](CCCCN)NC(=O)[C@H](CCCNC(=N)N)NC(=O)[C@H](CC(C)C)NC(=O)[C@H](CCCNC(=N)N)NC(=O)[C@H](CCCCN)NC(=O)[C@H](CCCNC(=N)N)NC(=O)[C@@H](N)CC(C)C)[C@@H](C)CC)C(=O)NCC(=O)N[C@@H](CCC(N)=O)C(=O)N[C@@H](CCCCN)C(=O)N[C@H](C(=O)N[C@@H](CCC(N)=O)C(=O)NCC(=O)N[C@@H](Cc1ccccc1)C(=O)N[C@H](C(=O)N1CCC[C@H]1C(=O)N[C@@H](CCCCN)C(=O)N[C@@H](CC(C)C)C(=O)O)C(C)C)[C@@H](C)CC | inhibition zone method | 374, LB 0.8% agar with 154 mM NaCl | overnight, 37 °C | lethal concentration | 4.42 µM |
| Nc1ccccc1C(=O)NS(=O)(=O)OC[C@H]1O[C@@H](n2cnc3c(N)ncnc32)[C@H](O)[C@@H]1O | PQS production, LC-MS/MS | PA14 | 1500 µM, 20 h | inhibition | 77% |
| CC[C@H](C)[C@H](NC(=O)[C@H](CCCCN)NC(=O)[C@H](CCCCN)NC(=O)[C@H](CC(C)C)NC(=O)[C@H](CCCCN)NC(=O)[C@H](CCC(=O)O)NC(=O)[C@H](CCCCN)NC(=O)[C@@H](NC(=O)[C@H](CCCCN)NC(=O)[C@H](CC(N)=O)NC(=O)[C@H](CCCNC(=N)N)NC(=O)[C@H](Cc1ccccc1)NC(=O)[C@H](CCCCN)NC(=O)[C@H](CCCNC(=N)N)NC(=O)[C@H](CC(C)C)NC(=O)[C@H](CCCNC(=N)N)NC(=O)[C@H](CCCCN)NC(=O)[C@H](CCCNC(=N)N)NC(=O)[C@H](CC(C)C)NC(=O)CN)[C@@H](C)CC)C(=O)NCC(=O)N[C@@H](CCC(N)=O)C(=O)N[C@@H](CCCCN)C(=O)N[C@H](C(=O)N[C@@H](CCC(N)=O)C(=O)NCC(=O)N[C@@H](Cc1ccccc1)C(=O)N[C@H](C(=O)N1CCC[C@H]1C(=O)N[C@@H](CCCCN)C(=O)N[C@@H](CC(C)C)C(=O)N[C@@H](C)C(=O)N1CCC[C@H]1C(=O)N[C@@H](CCCNC(=N)N)C(=O)N[C@H](C(=O)N[C@@H](CC(=O)O)C(=O)N[C@@H](Cc1ccc(O)cc1)C(=O)O)[C@@H](C)O)C(C)C)[C@@H](C)CC | inhibition zone | DH | – | lethal concentration | 2.19 µM |
| C[C@@](O)(C(F)F)[C@H](NC(=O)c1ccc(C#CC#CC2CC2)cc1)C(=O)NO | agar dilution | susceptible clinical isolates | – | MIC50 | 0.25 µg/mL (≈ 0.664 µM) |
| CC[C@H](C)[C@H](NC(=O)[C@H](Cc1c[nH]cn1)NC(=O)[C@H](CCCCNC(=O)[C@@H](NC(=O)[C@H](CCCCN)NC(=O)CSC[C@H](NC(=O)[C@H](Cc1ccccc1)NC(=O)[C@H](CCCCNC(=O)[C@H](CC(C)C)NC(=O)[C@@H]1CCCN1C(=O)[C@H](CCCCN)NC(=O)CCS[C@@H]1O[C@H](CO)[C@H](O)[C@H](O)[C@H]1O)NC(=O)[C@H](CC(C)C)NC(=O)[C@@H]1CCCN1C(=O)[C@H](CCCCN)NC(=O)CCS[C@@H]1O[C@H](CO)[C@H](O)[C@H](O)[C@H]1O)C(N)=O)[C@@H](C)CC)NC(=O)[C@@H](NC(=O)[C@H](CCCCN)NC(=O)CSC[C@H](NC(=O)[C@H](Cc1ccccc1)NC(=O)[C@H](CCCCNC(=O)[C@H](CC(C)C)NC(=O)[C@@H]1CCCN1C(=O)[C@H](CCCCN)NC(=O)CCS[C@@H]1O[C@H](CO)[C@H](O)[C@H](O)[C@H]1O)NC(=O)[C@H](CC(C)C)NC(=O)[C@@H]1CCCN1C(=O)[C@H](CCCCN)NC(=O)CCS[C@@H]1O[C@H](CO)[C@H](O)[C@H](O)[C@H]1O)C(N)=O)[C@@H](C)CC)C(N)=O | biofilm formation | PAO1 | 24 h | MBIC | 30 µM |
| CCCC(=O)NCC(=O)N[C@@H](CC(C)C)C(=O)N[C@@H](CC(C)C)C(=O)N[C@@H](CCCCN)C(=O)N[C@@H](CCCNC(=N)N)C(=O)N[C@H](C(=O)N[C@@H](CCCCN)C(=O)N[C@H](C(=O)N[C@@H](CC(C)C)C(=O)N[C@@H](CC(C)C)C(=O)NCCCC[C@H](NC(=O)[C@H](CCCCNC(=O)[C@H](CC(C)C)NC(=O)[C@H](CC(C)C)NC(=O)[C@@H](NC(=O)[C@H](CCCCN)NC(=O)[C@@H](NC(=O)[C@H](CCCNC(=N)N)NC(=O)[C@H](CCCCN)NC(=O)[C@H](CC(C)C)NC(=O)[C@H](CC(C)C)NC(=O)CNC(=O)CCC)[C@@H](C)CC)[C@@H](C)O)NC(=O)[C@H](CC(C)C)NC(=O)[C@H](CC(C)C)NC(=O)[C@@H](NC(=O)[C@H](CCCCN)NC(=O)[C@@H](NC(=O)[C@H](CCCNC(=N)N)NC(=O)[C@H](CCCCN)NC(=O)[C@H](CC(C)C)NC(=O)[C@H](CC(C)C)NC(=O)CNC(=O)CCC)[C@@H](C)CC)[C@@H](C)O)C(N)=O)[C@@H](C)O)[C@@H](C)CC | checkerboard | ATCC 27853 | with: rifampicin | FIC index | 0.5 |
| CC[C@H](C)[C@H](NC(=O)[C@H](CCCCN)NC(=O)[C@H](CCCCN)NC(=O)[C@H](CC(C)C)NC(=O)[C@H](CCCCN)NC(=O)[C@H](CCC(=O)O)NC(=O)[C@H](CCCCN)NC(=O)[C@@H](NC(=O)[C@H](CCCCN)NC(=O)[C@H](CC(N)=O)NC(=O)[C@H](CCCNC(=N)N)NC(=O)[C@H](Cc1ccccc1)NC(=O)[C@H](CCCCN)NC(=O)[C@H](CCCNC(=N)N)NC(=O)[C@H](CC(C)C)NC(=O)[C@H](CCCNC(=N)N)NC(=O)[C@H](CCCCN)NC(=O)[C@H](CCCNC(=N)N)NC(=O)[C@H](CC(C)C)NC(=O)[C@@H](N)CCCNC(=N)N)[C@@H](C)CC)C(=O)NCC(=O)N[C@@H](CCC(N)=O)C(=O)N[C@@H](CCCCN)C(=O)N[C@H](C(=O)N[C@@H](CCC(N)=O)C(=O)NCC(=O)N[C@@H](Cc1ccccc1)C(=O)N[C@H](C(=O)N1CCC[C@H]1C(=O)N[C@@H](CCCCN)C(=O)N[C@@H](CC(C)C)C(=O)N[C@@H](CCC(N)=O)C(=O)N1CCC[C@H]1C(=O)N[C@@H](CO)C(=O)N[C@@H](CCCCN)C(=O)N[C@@H](CCC(N)=O)C(=O)N[C@@H](CO)C(=O)O)C(C)C)[C@@H](C)CC | inhibition zone method | 11082616, LB 0.8% agar with 154 mM NaCl | overnight, 37 °C | lethal concentration | 7.2 µM |
| CCCCCCCC(=O)NCC(=O)N[C@@H](CC(C)C)C(=O)N[C@@H](CC(C)C)C(=O)N[C@@H](CCCCN)C(=O)N[C@@H](CCCNC(=N)N)C(=O)N[C@H](C(=O)N[C@@H](CCCCN)C(=O)N[C@H](C(=O)N[C@@H](CC(C)C)C(=O)N[C@@H](CC(C)C)C(N)=O)[C@@H](C)O)[C@@H](C)CC | checkerboard | ATCC 27853 | with: rifampicin | FIC index | 0.5 |
| C[C@@H](c1ccccc1)N(CC(N)=O)C(=O)CN(C(=O)CN(CCCCN)C(=O)CN(C(=O)CN(C(=O)CN(CCCCN)C(=O)CN(C(=O)CN(C(=O)CN(CCCCN)C(=O)CN(C(=O)CN(C(=O)CNCCCCN)[C@@H](C)c1ccccc1)[C@@H](C)c1ccccc1)[C@@H](C)c1ccccc1)[C@@H](C)c1ccccc1)[C@@H](C)c1ccccc1)[C@@H](C)c1ccccc1)[C@@H](C)c1ccccc1 | – | LESB58, mouse, abscess model | maximum tolerated dose, 1 h post infection | abscess size | 36.8 mm² |
